# Measurements pooled from the literature.
# Protocols differ between the studies behind these lines. Values joined by “and” are separate records of one study, mostly repeats; a detail may differ. ± marks the error that the study gave.
Structure (SMILES),target or system,assay,setting,how to read,endpoint,result
CNS(=O)(=O)Nc1nccc(Cc2c(C)c3ccc(Oc4ncccc4F)cc3oc2=O)c1F,VCaP,cell viability,7 days,,IC50,> 1 µM
O=C(N/N=C/c1ccc2c(ccc[n+]2Cc2ccccc2)c1)c1cccc(C(=O)N/N=C/c2ccc3c(ccc[n+]3Cc3ccccc3)c2)n1,telomeric G4 DNA hybrid-2,FRET melting,"1 µM, DNA 0.2 µM, with: duplex DNA competitor 10 µM",,ΔTm,21.5 ± 1 °C
CSCC[C@H](N)C(=O)N[C@@H](C)C(=O)N[C@@H](CCCNC(=N)N)C(=O)N[C@@H](CCCNC(=N)N)C(=O)N[C@@H](CC(=O)O)C(=O)N[C@@H](CCCCN)C(=O)N[C@H](C(=O)N[C@@H](CC(=O)O)C(=O)N[C@@H](Cc1ccccc1)C(=O)N[C@@H](C)C(=O)N[C@@H](CCCNC(=N)N)C(=O)N[C@@H](CCCNC(=N)N)C(=O)N[C@@H](CCCNC(=N)N)C(=O)N[C@@H](CCCNC(=N)N)C(=O)NCCCCCC(=O)NCCCCC(NC(=O)CCCCCNC(=O)[C@H](CCCNC(=N)N)NC(=O)[C@H](CCCNC(=N)N)NC(=O)[C@H](CCCNC(=N)N)NC(=O)[C@H](CCCNC(=N)N)NC(=O)[C@H](C)NC(=O)[C@H](Cc1ccccc1)NC(=O)[C@H](CC(=O)O)NC(=O)[C@@H](NC(=O)[C@H](CCCCN)NC(=O)[C@H](CC(=O)O)NC(=O)[C@H](CCCNC(=N)N)NC(=O)[C@H](CCCNC(=N)N)NC(=O)[C@H](C)NC(=O)[C@@H](N)CCSC)[C@@H](C)O)C(=O)NCCCCC(NC(=O)C(CCCCNC(=O)CCCCCNC(=O)[C@H](CCCNC(=N)N)NC(=O)[C@H](CCCNC(=N)N)NC(=O)[C@H](CCCNC(=N)N)NC(=O)[C@H](CCCNC(=N)N)NC(=O)[C@H](C)NC(=O)[C@H](Cc1ccccc1)NC(=O)[C@H](CC(=O)O)NC(=O)[C@@H](NC(=O)[C@H](CCCCN)NC(=O)[C@H](CC(=O)O)NC(=O)[C@H](CCCNC(=N)N)NC(=O)[C@H](CCCNC(=N)N)NC(=O)[C@H](C)NC(=O)[C@@H](N)CCSC)[C@@H](C)O)NC(=O)CCCCCNC(=O)[C@H](CCCNC(=N)N)NC(=O)[C@H](CCCNC(=N)N)NC(=O)[C@H](CCCNC(=N)N)NC(=O)[C@H](CCCNC(=N)N)NC(=O)[C@H](C)NC(=O)[C@H](Cc1ccccc1)NC(=O)[C@H](CC(=O)O)NC(=O)[C@@H](NC(=O)[C@H](CCCCN)NC(=O)[C@H](CC(=O)O)NC(=O)[C@H](CCCNC(=N)N)NC(=O)[C@H](CCCNC(=N)N)NC(=O)[C@H](C)NC(=O)[C@@H](N)CCSC)[C@@H](C)O)C(N)=O)[C@@H](C)O (some centres unmarked),mouse C57BL/6 BMMs,,"1.0 µM, 3 days, with: RANKL",relative to: untreated control,osteoclast formation,25%
COC1CN([C@H]2CC[C@H]([C@@]3(C)Oc4c(Cl)cc(C(=O)NCc5c(SC)cc(C)[nH]c5=O)c(C)c4O3)CC2)C1,RT-4,"cell growth or viability, ATP luminescence",12 days,,GI50,> 10 µM
COc1ccccc1-c1ccncc1C(=O)Nc1nnc(OCc2ccc(Cl)cc2)s1,DLD-1 BRCA2-/-,,"0.06 µM, single replicate",,colony count,58 and 54 and 55 and 48 and 62 and 52
C=CC(=O)Nc1cccc(Cn2ncc3cnc(Nc4cnn(CCOC)c4)nc32)c1,ERBB2 human,"binding, KINOMEscan",100 nM,lower = stronger binding,percent of control,88%
CC(C)(C)c1cc(-c2ccc3cc4ccccc4nc3n2)nc(-c2ccc3cc4ccccc4nc3n2)c1.Cc1ccncc1.[Cl-].[Cl-].[Ru+2].c1ccc2cc3nc4c5cccnc5c5ncccc5c4nc3cc2c1,B16-F10,"cytotoxicity, resazurin",dark,,EC50,58.8 µM
CC1(C)C[C@@H](Nc2cccc(-c3sc(C(=O)O)c(OCC(=O)O)c3Cl)c2)CCN1S(=O)(=O)Cc1cccc(NC(=O)CN2CCC(c3ccc4c(c3)oc(=O)n4C3CCC(=O)NC3=O)CC2)c1 (some centres unmarked),B16-F10,"HTRF, measured: phospho-STAT1 Tyr701","3.3 µM, with: IFN-γ",relative to: DMSO,fold change,5.08 and 5.53 and 5.42 and 5.25 and 5.51 and 5.36
[BH3-][P+]1(c2ccccc2)CCCCC1,HCT-116,annexin V/PI flow cytometry,"IC50, 72 h",,early apoptotic cells,6.15%
O=C(N1CCCC1)n1cc(-c2ccc(-c3ccccc3)cc2)nn1,mouse T cells,"N-terminal labelling proteomics, measured: Skp1a N-terminal peptide","0.001 µM, 6 h",relative to: DMSO,SILAC ratio per peptide,1.62 and 1.18 and 1.15
O=C(C[Se]C(=O)c1cc2ccccc2o1)Nc1cccc(C(F)(F)F)c1,NCI60 breast subpanel,cell growth,"10 µM, 48 h, one-dose",,mean growth percent,-70.7%
Cc1ncsc1-c1ccc(C(C)NC(=O)C2CC(O)CN2C(=O)C(NC(=O)CCCCCCCCCCN2CCCC(Nc3ncc(Cl)c(Nc4ccccc4S(=O)(=O)C(C)C)n3)C2)C(C)(C)C)cc1 (centres unmarked),22Rv1,"RNA-seq, measured: ZNF616 mRNA",concentration not given,relative to: DMSO,log2 fold change,-2.1
CCN(CC)CC(=O)Nc1cccc(-n2cc(-c3ccc4ccc(-c5cn(-c6cccc(NC(=O)CN(CC)CC)c6)nn5)cc4c3)nn2)c1,RCC4,"PCR angiogenesis array, measured: EDN1","5 x IC50, 6 h, normoxia",relative to: untreated,fold regulation,-2.76
Cc1c(Cl)cccc1Nc1ccccc1C(=O)[Se]CC(=O)Nc1cccc(C(F)(F)F)c1,NCI60 breast subpanel,cell growth,"10 µM, 48 h, one-dose",,mean growth percent,-65.6%
Cc1nc(Nc2ncc(C(=O)Nc3c(C)cccc3Cl)s2)cc(N2CCN(C(=O)CN)CC2)n1,KU812,flow cytometry,"concentration not given, 3 h",,early apoptotic cells,10.4% and 9.14% and 10.7%
CCC(=CCc1c(O)cc2c(c1O)C(=O)CC(c1ccc(O)cc1)O2)CC (centres unmarked),HeLa,"cell growth or viability, MTT","1.563 µM, 48 h",,inhibition,2.66%
Nc1ncc(-c2cc(-c3cnn(CC(F)(F)F)c3)ncc2F)nc1C(=O)NC1CNCC(F)C1 (centres unmarked),CDK9,KINOMEscan,1 µM,relative to: DMSO control,remaining binding,100%
CCCCCCCCCCCC(=O)N[C@H](CO)C[C@@H](O)c1ccccc1,HeLa,"CERT activity, HPLC-MS/MS lipidomics, measured: ceramide 22","1 µM, 24 h, not cell-number normalised",,ceramide level,2490 pmol/sample and 2970 pmol/sample and 2480 pmol/sample
Cn1ncc2cc(-c3cncc(Cl)c3N3CCC4(CCNC4=O)CC3)ccc21,LS174T,"gene expression, microarray, measured: AKR1C2 mRNA","concentration not given, 4 h",relative to: untreated cells,log2 fold change,1.5
CCOc1cncc(-c2ccc(NC(=O)C3(c4ccnc(NS(=O)(=O)C5CC5)n4)CCOCC3)nc2)n1,SU-DHL-4,"cell growth or viability, ATP luminescence",72 h,,IC50,0.356 µM
CC(C)c1ccc(N(C)c2ccc3c(c2)OCC[C@H]3CNc2cnccc2C(=O)O)cc1,MDA-MB-157,"cell viability, CellTiter-Glo",7 days,,IC50,≥ 10 µM
CN1CCCNC(=O)c2cccc(c2)C(=O)NCCCN(C)CCCNc2cccc3c2C(=O)c2cccc(c2C3=O)NCCC1,SAS,"RNA-Seq, measured: TRA2B mRNA","1 µM, 6 h",relative to: untreated cells,log2 fold change,0.393
C[n+]1cccc2cc(/C=N/NC(=O)c3ccc4ccc(C(=O)N/N=C/c5ccc6c(ccc[n+]6C)c5)nc4n3)ccc21,telomeric G4 DNA hybrid-2,FRET melting,"1 µM, DNA 0.2 µM",,ΔTm,22.4 ± 0.6 °C
COC(=O)c1cc(NC2=NC(=O)C(=Cc3ccc(C)cc3)S2)ccc1OC(C)=O,MCF7,"GC-MS, measured: Guanosine",1 µM,relative to: DMSO,metabolite level,-0.55 fold change
CC(C)(C)c1cc(-c2ccc3cccnc3n2)nc(-c2ccc3cccnc3n2)c1.[Cl-].[Cl-].[Ru+2].c1cnc2c(c1)ccc1cccnc12,B16-F10,resazurin,"with: light 523 nm, 100 J/cm2",relative to: dark EC50 over light EC50,phototoxicity index,1
CCN(C(=O)c1cc(F)ccc1Oc1nncnc1N1CCC2(C1)CN([C@H](CCCN(C)CCOC)C(C)C)C2)C(C)C,peripheral blood mononuclear cells,,72 h,,GI50,> 10 µM
Cc1ccncc1.[Cl-].[Cl-].[Ru+2].c1cc(-c2ccc3cccnc3n2)nc(-c2ccc3cccnc3n2)c1.c1ccc2cc3nc4c5cccnc5c5ncccc5c4nc3cc2c1,B16-F10,resazurin,"with: light 733 nm, 9 mW, 100 J/cm2",,EC50,2.14 µM
CC(=O)[O-].O.O.O.O.[Mn+2].[O-]c1ccc(Br)cc1C=NCCN1CCOCC1,,FRAP,80 µM,,ferric reducing power,14.2%
CC(=O)N(C)Cc1cccc(-c2cc3c(c(C(F)(F)F)c2)CCCC3N(C)C(=O)CCOCCOCCC(=O)N(C)C2CCCc3c2cc(-c2cccc(CN(C)C(C)=O)c2)cc3C(F)(F)F)c1 (centres unmarked),CHO,"immunoblot, measured: GADD34",20 µM,,time to onset of induction,1 h

# Excerpt of the above:
Structure (SMILES),target or system,assay,setting,how to read,endpoint,result
CNS(=O)(=O)Nc1nccc(Cc2c(C)c3ccc(Oc4ncccc4F)cc3oc2=O)c1F,VCaP,cell viability,7 days,,IC50,> 1 µM
O=C(N/N=C/c1ccc2c(ccc[n+]2Cc2ccccc2)c1)c1cccc(C(=O)N/N=C/c2ccc3c(ccc[n+]3Cc3ccccc3)c2)n1,telomeric G4 DNA hybrid-2,FRET melting,"1 µM, DNA 0.2 µM, with: duplex DNA competitor 10 µM",,ΔTm,21.5 ± 1 °C
CSCC[C@H](N)C(=O)N[C@@H](C)C(=O)N[C@@H](CCCNC(=N)N)C(=O)N[C@@H](CCCNC(=N)N)C(=O)N[C@@H](CC(=O)O)C(=O)N[C@@H](CCCCN)C(=O)N[C@H](C(=O)N[C@@H](CC(=O)O)C(=O)N[C@@H](Cc1ccccc1)C(=O)N[C@@H](C)C(=O)N[C@@H](CCCNC(=N)N)C(=O)N[C@@H](CCCNC(=N)N)C(=O)N[C@@H](CCCNC(=N)N)C(=O)N[C@@H](CCCNC(=N)N)C(=O)NCCCCCC(=O)NCCCCC(NC(=O)CCCCCNC(=O)[C@H](CCCNC(=N)N)NC(=O)[C@H](CCCNC(=N)N)NC(=O)[C@H](CCCNC(=N)N)NC(=O)[C@H](CCCNC(=N)N)NC(=O)[C@H](C)NC(=O)[C@H](Cc1ccccc1)NC(=O)[C@H](CC(=O)O)NC(=O)[C@@H](NC(=O)[C@H](CCCCN)NC(=O)[C@H](CC(=O)O)NC(=O)[C@H](CCCNC(=N)N)NC(=O)[C@H](CCCNC(=N)N)NC(=O)[C@H](C)NC(=O)[C@@H](N)CCSC)[C@@H](C)O)C(=O)NCCCCC(NC(=O)C(CCCCNC(=O)CCCCCNC(=O)[C@H](CCCNC(=N)N)NC(=O)[C@H](CCCNC(=N)N)NC(=O)[C@H](CCCNC(=N)N)NC(=O)[C@H](CCCNC(=N)N)NC(=O)[C@H](C)NC(=O)[C@H](Cc1ccccc1)NC(=O)[C@H](CC(=O)O)NC(=O)[C@@H](NC(=O)[C@H](CCCCN)NC(=O)[C@H](CC(=O)O)NC(=O)[C@H](CCCNC(=N)N)NC(=O)[C@H](CCCNC(=N)N)NC(=O)[C@H](C)NC(=O)[C@@H](N)CCSC)[C@@H](C)O)NC(=O)CCCCCNC(=O)[C@H](CCCNC(=N)N)NC(=O)[C@H](CCCNC(=N)N)NC(=O)[C@H](CCCNC(=N)N)NC(=O)[C@H](CCCNC(=N)N)NC(=O)[C@H](C)NC(=O)[C@H](Cc1ccccc1)NC(=O)[C@H](CC(=O)O)NC(=O)[C@@H](NC(=O)[C@H](CCCCN)NC(=O)[C@H](CC(=O)O)NC(=O)[C@H](CCCNC(=N)N)NC(=O)[C@H](CCCNC(=N)N)NC(=O)[C@H](C)NC(=O)[C@@H](N)CCSC)[C@@H](C)O)C(N)=O)[C@@H](C)O (some centres unmarked),mouse C57BL/6 BMMs,,"1.0 µM, 3 days, with: RANKL",relative to: untreated control,osteoclast formation,25%
COC1CN([C@H]2CC[C@H]([C@@]3(C)Oc4c(Cl)cc(C(=O)NCc5c(SC)cc(C)[nH]c5=O)c(C)c4O3)CC2)C1,RT-4,"cell growth or viability, ATP luminescence",12 days,,GI50,> 10 µM
COc1ccccc1-c1ccncc1C(=O)Nc1nnc(OCc2ccc(Cl)cc2)s1,DLD-1 BRCA2-/-,,"0.06 µM, single replicate",,colony count,58 and 54 and 55 and 48 and 62 and 52
